Experimental data from different studies.
Each line is one published result; not all experiments were run side by side. ± gives the spread as reported. Converted amounts (≈) assume the structure as drawn.
MAL12: Alpha-glucosidase MAL12 (MAL12, Saccharomyces cerevisiae S288c, UniProt P53341)
Chain of UniProt P53341 (whole entry, looked up): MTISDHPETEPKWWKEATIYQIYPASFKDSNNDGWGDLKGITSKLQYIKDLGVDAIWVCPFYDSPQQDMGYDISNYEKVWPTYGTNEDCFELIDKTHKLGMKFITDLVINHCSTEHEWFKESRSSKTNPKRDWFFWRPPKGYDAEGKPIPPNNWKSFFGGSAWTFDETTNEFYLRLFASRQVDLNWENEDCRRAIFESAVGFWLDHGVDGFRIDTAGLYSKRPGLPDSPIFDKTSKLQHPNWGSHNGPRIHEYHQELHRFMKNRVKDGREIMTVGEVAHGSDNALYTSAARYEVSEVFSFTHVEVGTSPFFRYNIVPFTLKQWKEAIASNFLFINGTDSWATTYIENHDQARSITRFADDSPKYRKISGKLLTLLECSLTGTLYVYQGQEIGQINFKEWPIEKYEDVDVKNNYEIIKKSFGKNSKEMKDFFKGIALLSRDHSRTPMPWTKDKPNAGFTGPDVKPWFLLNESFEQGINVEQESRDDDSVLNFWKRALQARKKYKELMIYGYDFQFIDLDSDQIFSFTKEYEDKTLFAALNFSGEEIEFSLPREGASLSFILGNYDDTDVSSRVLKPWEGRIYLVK
Chain of UniProt Q9NZC7 (whole entry, unmodified, looked up): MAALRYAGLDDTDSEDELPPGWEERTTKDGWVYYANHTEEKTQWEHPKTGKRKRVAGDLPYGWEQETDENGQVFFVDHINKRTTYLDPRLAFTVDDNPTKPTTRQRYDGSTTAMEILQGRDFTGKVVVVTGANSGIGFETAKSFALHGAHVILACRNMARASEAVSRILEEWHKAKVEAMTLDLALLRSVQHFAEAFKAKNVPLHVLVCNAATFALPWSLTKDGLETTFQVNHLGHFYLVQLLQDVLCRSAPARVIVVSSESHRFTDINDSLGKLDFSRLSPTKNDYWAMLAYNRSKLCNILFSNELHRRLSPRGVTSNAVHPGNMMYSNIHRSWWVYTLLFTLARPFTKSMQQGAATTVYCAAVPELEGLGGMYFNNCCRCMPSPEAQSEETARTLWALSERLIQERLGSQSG
Chain of UniProt P69905 (whole entry, looked up): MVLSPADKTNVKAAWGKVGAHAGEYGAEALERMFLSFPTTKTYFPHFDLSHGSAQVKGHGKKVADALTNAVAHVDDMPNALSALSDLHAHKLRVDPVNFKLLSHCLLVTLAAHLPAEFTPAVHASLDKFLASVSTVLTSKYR
Chain of UniProt P0DMV8 (whole entry, looked up): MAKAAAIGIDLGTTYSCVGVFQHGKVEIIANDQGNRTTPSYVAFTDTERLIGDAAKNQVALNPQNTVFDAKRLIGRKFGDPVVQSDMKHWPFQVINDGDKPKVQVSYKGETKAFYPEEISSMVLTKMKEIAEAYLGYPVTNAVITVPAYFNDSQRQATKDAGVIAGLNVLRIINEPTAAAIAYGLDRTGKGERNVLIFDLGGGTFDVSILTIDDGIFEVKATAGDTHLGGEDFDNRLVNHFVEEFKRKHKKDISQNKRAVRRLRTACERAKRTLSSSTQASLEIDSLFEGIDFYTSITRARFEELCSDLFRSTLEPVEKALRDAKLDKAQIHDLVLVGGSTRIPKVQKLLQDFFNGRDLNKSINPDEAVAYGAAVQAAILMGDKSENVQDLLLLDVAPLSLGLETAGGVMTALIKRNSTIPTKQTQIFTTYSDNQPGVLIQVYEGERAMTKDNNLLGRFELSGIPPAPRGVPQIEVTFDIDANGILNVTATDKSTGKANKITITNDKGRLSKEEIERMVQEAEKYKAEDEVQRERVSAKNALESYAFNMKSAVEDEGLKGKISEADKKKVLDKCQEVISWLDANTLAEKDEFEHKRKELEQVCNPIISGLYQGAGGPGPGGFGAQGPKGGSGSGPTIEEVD
Chain of UniProt P70170 (whole entry, looked up): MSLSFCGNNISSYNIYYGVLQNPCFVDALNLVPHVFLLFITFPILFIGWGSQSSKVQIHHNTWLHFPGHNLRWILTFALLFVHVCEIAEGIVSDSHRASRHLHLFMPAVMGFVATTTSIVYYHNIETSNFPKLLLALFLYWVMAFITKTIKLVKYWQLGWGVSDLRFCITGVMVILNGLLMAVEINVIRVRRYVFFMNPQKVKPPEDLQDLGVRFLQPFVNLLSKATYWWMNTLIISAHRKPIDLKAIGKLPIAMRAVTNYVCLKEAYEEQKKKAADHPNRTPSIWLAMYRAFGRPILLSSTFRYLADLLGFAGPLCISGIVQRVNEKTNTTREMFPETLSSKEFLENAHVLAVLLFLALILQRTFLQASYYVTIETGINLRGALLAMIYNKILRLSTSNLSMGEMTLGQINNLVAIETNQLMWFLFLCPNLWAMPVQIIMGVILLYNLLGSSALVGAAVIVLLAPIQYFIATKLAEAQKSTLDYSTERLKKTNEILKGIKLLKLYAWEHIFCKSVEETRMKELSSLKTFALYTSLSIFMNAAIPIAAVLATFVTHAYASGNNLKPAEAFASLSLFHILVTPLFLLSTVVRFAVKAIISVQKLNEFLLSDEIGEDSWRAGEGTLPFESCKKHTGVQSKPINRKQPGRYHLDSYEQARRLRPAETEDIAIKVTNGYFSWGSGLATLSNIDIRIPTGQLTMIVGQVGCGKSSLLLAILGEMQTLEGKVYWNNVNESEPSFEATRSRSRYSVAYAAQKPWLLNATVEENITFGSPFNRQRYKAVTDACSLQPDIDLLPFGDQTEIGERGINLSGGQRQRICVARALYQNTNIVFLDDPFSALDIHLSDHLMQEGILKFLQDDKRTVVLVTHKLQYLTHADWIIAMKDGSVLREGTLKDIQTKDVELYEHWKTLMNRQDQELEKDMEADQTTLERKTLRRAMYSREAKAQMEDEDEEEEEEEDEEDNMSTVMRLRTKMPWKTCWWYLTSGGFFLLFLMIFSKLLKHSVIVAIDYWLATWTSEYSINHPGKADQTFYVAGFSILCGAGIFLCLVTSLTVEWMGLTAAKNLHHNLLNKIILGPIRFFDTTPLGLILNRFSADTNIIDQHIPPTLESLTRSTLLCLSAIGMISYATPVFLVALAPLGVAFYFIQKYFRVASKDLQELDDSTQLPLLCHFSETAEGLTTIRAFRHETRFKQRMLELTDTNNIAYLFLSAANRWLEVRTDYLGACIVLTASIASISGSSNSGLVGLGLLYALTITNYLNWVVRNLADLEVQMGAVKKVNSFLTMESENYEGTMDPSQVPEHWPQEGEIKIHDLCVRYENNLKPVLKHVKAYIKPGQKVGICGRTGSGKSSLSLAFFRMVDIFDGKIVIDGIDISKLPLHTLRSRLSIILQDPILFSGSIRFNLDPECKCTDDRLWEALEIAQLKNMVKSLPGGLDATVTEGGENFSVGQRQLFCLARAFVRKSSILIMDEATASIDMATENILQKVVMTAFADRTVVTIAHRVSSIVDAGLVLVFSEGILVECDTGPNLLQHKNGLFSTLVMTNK
Chain of UniProt Q14654 (whole entry, looked up): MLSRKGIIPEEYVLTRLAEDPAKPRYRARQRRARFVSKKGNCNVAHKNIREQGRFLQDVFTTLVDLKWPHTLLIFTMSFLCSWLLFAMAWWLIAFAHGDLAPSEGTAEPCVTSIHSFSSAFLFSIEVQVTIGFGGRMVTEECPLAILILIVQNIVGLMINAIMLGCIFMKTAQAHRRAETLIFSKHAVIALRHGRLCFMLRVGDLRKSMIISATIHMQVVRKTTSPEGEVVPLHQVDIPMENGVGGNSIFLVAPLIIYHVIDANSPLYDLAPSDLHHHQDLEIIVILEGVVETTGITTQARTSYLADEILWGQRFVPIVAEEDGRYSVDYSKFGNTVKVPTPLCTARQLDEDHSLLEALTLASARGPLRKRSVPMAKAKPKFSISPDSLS
Chain of UniProt Q8K424 (whole entry, looked up): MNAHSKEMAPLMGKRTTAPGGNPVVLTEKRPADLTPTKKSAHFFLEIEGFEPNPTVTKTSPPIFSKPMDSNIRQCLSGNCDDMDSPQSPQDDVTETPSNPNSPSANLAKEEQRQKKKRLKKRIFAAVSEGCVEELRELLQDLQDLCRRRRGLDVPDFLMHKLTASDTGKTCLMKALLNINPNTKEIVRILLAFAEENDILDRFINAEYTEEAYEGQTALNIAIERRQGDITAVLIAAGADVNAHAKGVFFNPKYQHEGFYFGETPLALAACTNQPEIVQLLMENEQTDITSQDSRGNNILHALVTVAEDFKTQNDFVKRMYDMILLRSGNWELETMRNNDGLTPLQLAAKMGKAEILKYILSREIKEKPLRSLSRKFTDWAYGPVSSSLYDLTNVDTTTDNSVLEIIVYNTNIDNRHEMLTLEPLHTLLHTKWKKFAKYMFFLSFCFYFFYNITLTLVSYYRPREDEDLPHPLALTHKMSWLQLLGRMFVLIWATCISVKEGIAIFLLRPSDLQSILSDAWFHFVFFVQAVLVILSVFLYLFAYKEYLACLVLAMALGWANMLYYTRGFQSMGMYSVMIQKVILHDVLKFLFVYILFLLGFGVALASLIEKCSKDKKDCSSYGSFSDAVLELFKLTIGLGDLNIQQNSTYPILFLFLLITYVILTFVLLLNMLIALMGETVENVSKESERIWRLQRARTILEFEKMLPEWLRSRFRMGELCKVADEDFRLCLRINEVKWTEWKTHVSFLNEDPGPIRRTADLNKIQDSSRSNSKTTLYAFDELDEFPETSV
Chain of UniProt Q01064 (whole entry, looked up): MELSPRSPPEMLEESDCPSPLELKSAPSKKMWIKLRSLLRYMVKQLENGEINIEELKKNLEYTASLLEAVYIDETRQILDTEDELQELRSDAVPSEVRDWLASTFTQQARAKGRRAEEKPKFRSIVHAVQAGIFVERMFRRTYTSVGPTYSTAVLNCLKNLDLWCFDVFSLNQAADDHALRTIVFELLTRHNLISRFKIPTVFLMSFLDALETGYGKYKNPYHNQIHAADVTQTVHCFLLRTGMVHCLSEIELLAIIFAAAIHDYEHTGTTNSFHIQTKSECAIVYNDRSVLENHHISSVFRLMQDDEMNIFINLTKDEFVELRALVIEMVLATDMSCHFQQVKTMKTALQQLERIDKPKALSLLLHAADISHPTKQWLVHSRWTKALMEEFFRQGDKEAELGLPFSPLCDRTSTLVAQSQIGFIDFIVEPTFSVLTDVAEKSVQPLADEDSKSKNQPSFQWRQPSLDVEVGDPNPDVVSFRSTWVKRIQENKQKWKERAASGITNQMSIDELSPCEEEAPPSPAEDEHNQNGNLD

| Molecule | target | assay | system | setting | how to read | measurement | result |
| --- | --- | --- | --- | --- | --- | --- | --- |
| CC(C)(C)OCc1ccc(C=O)o1 | Hemoglobin subunit alpha, with sickle beta chain (HBA1, Homo sapiens, UniProt P69905) | oxygen affinity | sickle red cell lysate | 2000 µM | reference: untreated | P50 change | 24 ± 5.6% |
| CC[C@H](C)[C@H](NC(=O)[C@@H]1CCCN1C(=O)[C@@H]1CCCN1C(=O)[C@@H]1CCCN1C(=O)[C@@H](NC(=O)[C@H](CC(N)=O)NC(=O)[C@@H](N)Cc1ccccc1)[C@@H](C)CC)C(=O)N[C@@H](Cc1ccc(O)cc1)C(=O)N[C@H](C(=O)N[C@@H](CO)C(=O)N[C@@H](CCCNC(=N)N)C(=O)N[C@@H](C)C(=O)O)[C@@H](C)O | WW domain-containing oxidoreductase, WW1-WW2 tandem domains (WWOX, Homo sapiens, UniProt Q9NZC7) | binding, ITC |  | pH 7.0, 25 °C |  | ΔG | -5.15 ± 0.04 kcal/mol |
| CC(=O)[C@H]1CC[C@H]2[C@@H]3CCC4=CC(=O)CC[C@]4(C)[C@H]3CC[C@]12C | RORA (Homo sapiens, UniProt P35398) | AlphaScreen |  |  | reference: 25 µM 7α-hydroxycholesterol | maximal response | 122% |
| CSCC[C@@H]1NC(=O)[C@H](C)NC(=O)[C@H](CCC(=O)O)NC(=O)[C@@H](NC(=O)[C@@H]2CCCN2C(=O)[C@H](CO)NC(=O)[C@H](CO)NC(=O)CNC(=O)[C@H](CO)NC(=O)CNC(=O)[C@H](CO)NC(=O)CNC(=O)[C@H](CCCCN)NC(=O)[C@H](CC(=O)O)NC(=O)[C@H](CC(=O)O)NC(=O)[C@H](CC(=O)O)NC(=O)[C@H](CC(=O)O)NC(=O)[C@H](CCCCN)NC(=O)[C@H](Cc2ccc(O)cc2)NC(=O)[C@H](CC(=O)O)NC(=O)[C@@H](N)CCSC)Cc2ccc(cc2)OCCSC[C@@H](C(=O)N[C@H](C(=O)N[C@@H](CC(=O)O)C(=O)N[C@H](C(=O)O)[C@@H](C)O)[C@@H](C)O)NC(=O)[C@H](CCSC)NC(=O)[C@H](CC(=O)O)NC1=O | Sonic hedgehog |  |  | 1 µM, 1 h, room temperature, with: 200 µM robotnikinin | reference: no competitor | binding reduction | ~40% |
| CC1=C(C(=O)OCc2ccccc2)C(c2ccc(-c3ccccc3)cc2)N(Cc2ccc(-c3nnn[nH]3)cc2)C(=S)N1 (stereo not shown) | HSPA1A (Homo sapiens, UniProt P0DMV8) | ATPase activity, inhibitor |  | 100 µM, without Hsp40 | reference: DMSO, negative means inhibition | fold change in activity | -1.7 fold |
| CC(C)OCc1ccc(C=O)o1 | Hemoglobin subunit alpha, with beta chain (HBA1, Homo sapiens, UniProt P69905) | item: haemoglobin A adduct | human normal whole blood | 2 mM, 24 h, hematocrit 30% |  | peak modification | 15.8% |
| CC1=C(/C=C/C(C)=C/C=C/C(C)=C/C=C/C=C(C)/C=C/C=C(C)/C=C/C2=C(C)C[C@H](O)CC2(C)C)C(C)(C)C[C@H](O)C1 | Beta-lactoglobulin (LGB, Bos taurus, UniProt P02754) | surface plasmon resonance |  | 25 °C |  | Kd | 2720 ± 30 nM |
| CSc1ccc(/C=C2/C(C)=C(CC(=O)O)c3cc(F)ccc32)cc1 | Dual specificity calcium/calmodulin-dependent 3',5'-cyclic nucleotide phosphodiesterase 1B (Homo sapiens, UniProt Q01064) | cAMP hydrolysis, inhibitor, IMAP fluorescence polarization |  | up to 200 µM |  | IC50 | inactive |
| COc1ccc(Cl)cc1C(=O)NCCc1ccc(S(=O)(=O)NC(=O)NC2CCCCC2)cc1 | Abcc9/KCNJ11 (Mus musculus, UniProt P70170+Q14654) | channel activity, inhibitor, inside-out patch clamp | HEK293 | 10 µM, with: 50 µM MgATP | reference: before drug | remaining activity | 22 ± 4% |
| CC[C@H](C)[C@H](NC(=O)[C@H](CCC(=O)O)NC(=O)[C@@H]1CCCN1C(=O)[C@H](CCCNC(=N)N)NC(C)=O)C(=O)N[C@@H](Cc1c[nH]c2ccccc12)C(=O)N[C@@H](Cc1ccc(O)cc1)C(=O)N[C@@H](C)C(=O)N[C@@H](CCC(N)=O)C(=O)NCC(=O)N[C@@H](CC(C)C)C(=O)N[C@@H](CCCCN)C(=O)N[C@@H](CCCNC(=N)N)C(=O)N[C@@H](Cc1ccccc1)C(=O)NCC(=O)N[C@@H](CC(=O)O)C(=O)N[C@@H](CCC(=O)O)C(=O)N[C@@H](Cc1ccccc1)C(=O)N[C@@H](CC(N)=O)C(=O)N[C@@H](C)C(=O)N[C@@H](Cc1ccc(O)cc1)C(=O)N[C@@H](Cc1ccc(O)cc1)C(=O)N[C@@H](C)C(=O)N[C@@H](CCCNC(=N)N)C(N)=O | human Bfl-1 (residues 1-151) | binding, fluorescence polarization competition |  | 50 nM protein, with: 10 nM fluorescein Bim-BH3 | no competition up to this value | highest concentration without competition | > 10 µM |
| CCC/C=C\C=O | chemosensory protein 3 (Chilo suppressalis, UniProt V9PY40) | binding, competitive ligand, fluorescence competitive binding |  | highest concentration tested, pH 7.4, protein 2 µM, with: 1-NPN 2 µM | reference: no ligand | remaining 1-NPN fluorescence | 62.4 ± 3.81% |
| CC(C)S[C@@H]1O[C@H](CO)[C@H](O)[C@H](O)[C@H]1O | lecA (Pseudomonas aeruginosa, UniProt Q05097) | hemagglutination, inhibitor | rabbit erythrocytes | 30 min, 4 °C |  | MIC | 1100 µM (≈ 262 µg/mL) |
| AMFKNNYPSL | H-2 class I histocompatibility antigen, K-B alpha chain, 26 (H2-K1, Mus musculus, UniProt P01901) | H2-K binding, flow cytometry | peptide, RMA-S | 10 µg per 100 µL, 3 h |  | MFI increase | 72.7% |
| CC(C)C[C@H](NC(=O)[C@@H](NC(=O)[C@@H](N)[C@@H](C)O)C(C)C)C(=O)N1CCC[C@H]1C(=O)N1CCC[C@H]1C(=O)N1CCC[C@H]1C(=O)N1CCC[C@H]1C(=O)N[C@@H](Cc1ccc(O)cc1)C(=O)N[C@@H](CCCNC(=N)N)C(=O)N[C@@H](Cc1c[nH]cn1)C(=O)N[C@@H](C)C(=O)N[C@@H](CC(N)=O)C(=O)O | WW domain-containing oxidoreductase, WW1 domain (WWOX, Homo sapiens, UniProt Q9NZC7) | binding to WW1 domain, isothermal titration calorimetry |  | pH 7.0, 25 °C |  | binding free energy ΔG | -5.29 ± 0.13 kcal/mol |
| O=c1cc(-c2ccccc2)oc2cc(O)ccc12 | MAL12 | enzyme activity, inhibitor |  | 25 µM, with: p-nitrophenyl-α-D-glucopyranoside |  | inhibition | < 1% |
| CN(C)c1ccc(-c2ccc3ncnc(Nc4ccccc4)c3c2)cc1 | ERBB2 (Homo sapiens, UniProt P04626) | inhibitor | MCF7 |  |  | complete inhibition concentration | ~20 µM |
| VLASVSATHAKSSPY | human IgE | peptide microarray | peptide, walnut-allergic patient sera | concentration not given, 16 h, 4 °C |  | patients with IgE binding | 25% |
| O=c1c(O)c(-c2ccccc2)oc2cc(O)cc(O)c12 | Kcnh1 (Mus musculus, UniProt Q60603) | inside-out patch clamp | Xenopus oocytes | 10 µM |  | V1/2 shift | -3.3 ± 1.9 mV |
| CC1=C(C(=O)OCc2ccccc2)C(c2ccc(-c3ccccc3C)cc2)N(Cc2ccc(-c3nnn[nH]3)cc2)C(=S)N1 (stereo not shown) | Heat shock 70 kDa protein 1A, with Hdj2 (HSPA1A, Homo sapiens, UniProt P0DMV8) | ATPase activity, inhibitor |  | 100 µM, Hsp40-stimulated activity, with: Hdj2 Hsp70:Hsp40 1:0.5 | reference: DMSO, negative means inhibition | fold change in activity | -4.8 fold |
| COc1c(-c2ccc(O)cc2)oc2c(OC)c(O)cc(O)c2c1=O | MAL12 | enzyme activity, p-nitrophenyl glucoside substrate |  | 10 µM, series 250 to 10 µM |  | inhibition | > 50% |
| NCCOB(c1ccccc1)c1ccccc1 | Trpv3 (Mus musculus, UniProt Q8K424) | agonist, Fluo-4 calcium | HEK293 transfected |  | reference: pH 7.4 over pH 5.6 | EC50 ratio | ~15 fold |
| COc1cc2oc(-c3ccc(O)cc3)cc(=O)c2c(O)c1OC | MAL12 | enzyme activity, inhibitor, absorbance |  | 100 µM |  | inhibition | 97.5% |
| CC(C)C[C@H](NC(=O)[C@@H](NC(=O)[C@@H](N)[C@@H](C)O)C(C)C)C(=O)N1CCC[C@H]1C(=O)N1CCC[C@H]1C(=O)N1CCC[C@H]1C(=O)N1CCC[C@H]1C(=O)N[C@@H](Cc1ccc(O)cc1)C(=O)N[C@@H](CCCNC(=N)N)C(=O)N[C@@H](Cc1c[nH]cn1)C(=O)N[C@@H](CCCNC(=N)N)C(=O)N[C@@H](CC(N)=O)C(=O)O | WW domain-containing oxidoreductase, WW2 domain Y85W (WWOX, Homo sapiens, UniProt Q9NZC7, Y85W) | binding, ITC |  | pH 7.0, 25 °C |  | ΔG | -5.83 ± 0.09 kcal/mol |
| CC(=O)N[C@@H]1[C@@H](O)[C@H](O[C@@H]2O[C@H](CO)[C@@H](O[C@@H]3O[C@H](CO[C@H]4O[C@H](CO[C@H]5O[C@H](CO)[C@@H](O)[C@H](O)[C@@H]5O[C@H]5O[C@H](CO)[C@@H](O)[C@H](O)[C@@H]5O)[C@@H](O)[C@H](O[C@H]5O[C@H](CO)[C@@H](O)[C@H](O)[C@@H]5O)[C@@H]4O)[C@@H](O)[C@H](O[C@H]4O[C@H](CO)[C@@H](O)[C@H](O)[C@@H]4O[C@H]4O[C@H](CO)[C@@H](O)[C@H](O)[C@@H]4O[C@H]4O[C@H](CO)[C@@H](O)[C@H](O)[C@@H]4O)[C@@H]3O)[C@H](O)[C@H]2NC(C)=O)[C@@H](CO)O[C@H]1NC(=O)C[C@H](N)C(=O)O | NT1 (Nicotiana tabacum, UniProt Q94EW1) | glycan binding, glycan array |  | with: Alexa 488-labelled lectin 150 µg/mL |  | fluorescence | 32100 RFU |
| COc1cc(-c2cc(=O)c3ccc(O)c(OC)c3o2)cc(O)c1OC | MAL12 | enzyme activity, inhibitor, absorbance |  | 50 µM |  | inhibition | 72.6% |

For quick reference, copied from above:
| Molecule | target | assay | system | setting | how to read | measurement | result |
| --- | --- | --- | --- | --- | --- | --- | --- |
| CC(=O)[C@H]1CC[C@H]2[C@@H]3CCC4=CC(=O)CC[C@]4(C)[C@H]3CC[C@]12C | RORA (Homo sapiens, UniProt P35398) | AlphaScreen |  |  | reference: 25 µM 7α-hydroxycholesterol | maximal response | 122% |
| CC[C@H](C)[C@H](NC(=O)[C@@H]1CCCN1C(=O)[C@@H]1CCCN1C(=O)[C@@H]1CCCN1C(=O)[C@@H](NC(=O)[C@H](CC(N)=O)NC(=O)[C@@H](N)Cc1ccccc1)[C@@H](C)CC)C(=O)N[C@@H](Cc1ccc(O)cc1)C(=O)N[C@H](C(=O)N[C@@H](CO)C(=O)N[C@@H](CCCNC(=N)N)C(=O)N[C@@H](C)C(=O)O)[C@@H](C)O | WW domain-containing oxidoreductase, WW1-WW2 tandem domains (WWOX, Homo sapiens, UniProt Q9NZC7) | binding, ITC |  | pH 7.0, 25 °C |  | ΔG | -5.15 ± 0.04 kcal/mol |
| CC1=C(/C=C/C(C)=C/C=C/C(C)=C/C=C/C=C(C)/C=C/C=C(C)/C=C/C2=C(C)C[C@H](O)CC2(C)C)C(C)(C)C[C@H](O)C1 | Beta-lactoglobulin (LGB, Bos taurus, UniProt P02754) | surface plasmon resonance |  | 25 °C |  | Kd | 2720 ± 30 nM |
